Measured values gathered from unrelated publications.
Every numbered part comes from another study and shows a few of its results, in no order. Values joined by “and” are separate records of one study, mostly repeats; a detail may differ.
Sequence of UniProt P25100 (whole entry, looked up): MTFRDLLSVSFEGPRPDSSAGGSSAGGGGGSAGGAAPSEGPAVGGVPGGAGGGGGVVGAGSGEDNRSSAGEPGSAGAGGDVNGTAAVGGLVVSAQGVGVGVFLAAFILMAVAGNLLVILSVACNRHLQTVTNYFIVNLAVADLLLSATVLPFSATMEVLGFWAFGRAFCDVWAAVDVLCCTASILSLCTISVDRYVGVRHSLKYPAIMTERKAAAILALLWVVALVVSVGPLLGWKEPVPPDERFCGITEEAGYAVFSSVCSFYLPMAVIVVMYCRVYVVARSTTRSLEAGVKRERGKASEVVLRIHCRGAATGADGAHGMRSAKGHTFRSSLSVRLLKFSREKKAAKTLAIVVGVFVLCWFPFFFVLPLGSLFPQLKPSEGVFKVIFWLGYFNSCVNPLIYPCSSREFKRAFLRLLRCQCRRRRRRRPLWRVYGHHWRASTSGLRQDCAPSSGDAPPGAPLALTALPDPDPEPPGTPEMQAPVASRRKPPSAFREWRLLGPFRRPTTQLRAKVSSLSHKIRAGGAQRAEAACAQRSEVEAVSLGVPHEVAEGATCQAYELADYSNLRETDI
Sequence of UniProt P46098 (whole entry, looked up): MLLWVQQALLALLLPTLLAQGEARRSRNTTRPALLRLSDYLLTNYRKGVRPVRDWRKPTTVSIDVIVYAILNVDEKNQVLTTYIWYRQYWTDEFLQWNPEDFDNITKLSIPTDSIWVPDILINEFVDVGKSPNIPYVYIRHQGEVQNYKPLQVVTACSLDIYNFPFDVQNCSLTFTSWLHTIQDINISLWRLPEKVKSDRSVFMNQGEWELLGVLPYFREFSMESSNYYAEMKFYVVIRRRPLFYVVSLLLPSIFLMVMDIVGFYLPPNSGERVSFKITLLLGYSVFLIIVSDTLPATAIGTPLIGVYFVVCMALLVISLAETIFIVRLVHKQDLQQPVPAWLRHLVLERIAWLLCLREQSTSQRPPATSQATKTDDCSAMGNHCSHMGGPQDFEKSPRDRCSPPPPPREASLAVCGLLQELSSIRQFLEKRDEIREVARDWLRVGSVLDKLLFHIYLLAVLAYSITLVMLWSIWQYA
Sequence of UniProt P30291 (whole entry, looked up): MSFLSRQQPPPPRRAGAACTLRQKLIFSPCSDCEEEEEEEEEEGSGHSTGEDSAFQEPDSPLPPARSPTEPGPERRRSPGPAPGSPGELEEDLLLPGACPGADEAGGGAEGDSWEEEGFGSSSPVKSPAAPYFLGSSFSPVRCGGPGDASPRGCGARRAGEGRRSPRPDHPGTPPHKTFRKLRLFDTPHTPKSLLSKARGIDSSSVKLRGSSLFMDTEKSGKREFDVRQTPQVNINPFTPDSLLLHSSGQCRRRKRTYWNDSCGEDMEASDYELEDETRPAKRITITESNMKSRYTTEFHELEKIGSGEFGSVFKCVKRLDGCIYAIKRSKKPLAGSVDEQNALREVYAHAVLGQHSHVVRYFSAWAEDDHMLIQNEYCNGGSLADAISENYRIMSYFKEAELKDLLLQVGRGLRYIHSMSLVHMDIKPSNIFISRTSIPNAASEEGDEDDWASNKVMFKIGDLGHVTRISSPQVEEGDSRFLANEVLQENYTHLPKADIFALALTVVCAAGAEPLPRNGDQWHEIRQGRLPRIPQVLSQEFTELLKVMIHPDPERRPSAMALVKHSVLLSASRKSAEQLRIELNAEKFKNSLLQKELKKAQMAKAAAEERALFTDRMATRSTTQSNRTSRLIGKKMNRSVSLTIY
Sequence of UniProt P25021 (whole entry, looked up): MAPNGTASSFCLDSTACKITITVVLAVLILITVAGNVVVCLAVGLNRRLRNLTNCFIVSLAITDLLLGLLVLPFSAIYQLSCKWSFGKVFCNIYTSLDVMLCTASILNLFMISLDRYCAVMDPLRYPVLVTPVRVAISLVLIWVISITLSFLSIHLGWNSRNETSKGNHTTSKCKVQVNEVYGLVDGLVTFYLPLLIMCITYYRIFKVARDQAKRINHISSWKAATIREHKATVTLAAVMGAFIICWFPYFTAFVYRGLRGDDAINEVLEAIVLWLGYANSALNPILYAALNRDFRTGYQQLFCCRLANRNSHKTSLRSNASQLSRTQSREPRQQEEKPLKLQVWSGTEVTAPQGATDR
Sequence of UniProt P35367 (whole entry, looked up): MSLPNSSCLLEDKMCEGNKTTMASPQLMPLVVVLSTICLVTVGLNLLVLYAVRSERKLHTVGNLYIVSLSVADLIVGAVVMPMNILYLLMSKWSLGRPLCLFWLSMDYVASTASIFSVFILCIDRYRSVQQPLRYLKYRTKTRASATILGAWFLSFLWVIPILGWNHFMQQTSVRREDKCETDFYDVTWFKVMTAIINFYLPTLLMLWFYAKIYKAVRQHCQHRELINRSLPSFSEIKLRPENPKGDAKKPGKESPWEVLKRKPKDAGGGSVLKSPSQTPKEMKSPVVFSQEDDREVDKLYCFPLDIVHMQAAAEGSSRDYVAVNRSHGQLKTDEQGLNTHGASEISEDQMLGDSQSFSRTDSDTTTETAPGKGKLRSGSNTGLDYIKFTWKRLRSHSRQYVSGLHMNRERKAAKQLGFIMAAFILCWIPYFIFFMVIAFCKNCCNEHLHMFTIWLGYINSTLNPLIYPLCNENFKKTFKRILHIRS
Sequence of UniProt P51812 (whole entry, looked up): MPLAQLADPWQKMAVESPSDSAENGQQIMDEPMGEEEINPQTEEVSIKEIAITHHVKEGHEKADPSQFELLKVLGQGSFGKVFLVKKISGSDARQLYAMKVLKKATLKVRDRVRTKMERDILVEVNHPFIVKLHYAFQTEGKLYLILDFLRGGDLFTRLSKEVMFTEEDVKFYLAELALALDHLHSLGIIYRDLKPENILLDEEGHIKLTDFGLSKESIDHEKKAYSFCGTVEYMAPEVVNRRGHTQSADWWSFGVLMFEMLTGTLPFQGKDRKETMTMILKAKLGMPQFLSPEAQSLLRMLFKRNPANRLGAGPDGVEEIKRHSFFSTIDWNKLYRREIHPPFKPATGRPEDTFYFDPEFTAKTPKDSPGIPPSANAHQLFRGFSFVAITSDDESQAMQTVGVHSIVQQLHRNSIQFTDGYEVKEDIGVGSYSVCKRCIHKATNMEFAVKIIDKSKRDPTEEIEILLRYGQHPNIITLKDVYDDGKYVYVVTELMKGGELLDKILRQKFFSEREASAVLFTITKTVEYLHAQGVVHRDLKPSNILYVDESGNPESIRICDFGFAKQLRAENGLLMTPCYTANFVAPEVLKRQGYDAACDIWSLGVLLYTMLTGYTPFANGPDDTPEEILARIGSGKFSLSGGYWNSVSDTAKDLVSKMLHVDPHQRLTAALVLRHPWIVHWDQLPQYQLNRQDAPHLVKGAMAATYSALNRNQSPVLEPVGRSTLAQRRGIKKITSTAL
Sequence of UniProt Q8WU08 (whole entry, looked up): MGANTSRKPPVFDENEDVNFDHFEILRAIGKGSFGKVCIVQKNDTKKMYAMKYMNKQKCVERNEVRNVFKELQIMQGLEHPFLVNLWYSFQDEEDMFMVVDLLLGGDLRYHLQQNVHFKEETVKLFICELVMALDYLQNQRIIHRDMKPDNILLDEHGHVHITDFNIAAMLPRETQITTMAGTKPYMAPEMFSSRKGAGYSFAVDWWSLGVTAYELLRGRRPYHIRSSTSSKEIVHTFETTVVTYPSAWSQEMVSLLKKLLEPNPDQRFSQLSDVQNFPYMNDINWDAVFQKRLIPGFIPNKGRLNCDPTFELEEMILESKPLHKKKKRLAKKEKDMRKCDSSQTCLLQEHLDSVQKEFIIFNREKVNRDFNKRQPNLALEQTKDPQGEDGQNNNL
Sequence of UniProt P18089 (whole entry, looked up): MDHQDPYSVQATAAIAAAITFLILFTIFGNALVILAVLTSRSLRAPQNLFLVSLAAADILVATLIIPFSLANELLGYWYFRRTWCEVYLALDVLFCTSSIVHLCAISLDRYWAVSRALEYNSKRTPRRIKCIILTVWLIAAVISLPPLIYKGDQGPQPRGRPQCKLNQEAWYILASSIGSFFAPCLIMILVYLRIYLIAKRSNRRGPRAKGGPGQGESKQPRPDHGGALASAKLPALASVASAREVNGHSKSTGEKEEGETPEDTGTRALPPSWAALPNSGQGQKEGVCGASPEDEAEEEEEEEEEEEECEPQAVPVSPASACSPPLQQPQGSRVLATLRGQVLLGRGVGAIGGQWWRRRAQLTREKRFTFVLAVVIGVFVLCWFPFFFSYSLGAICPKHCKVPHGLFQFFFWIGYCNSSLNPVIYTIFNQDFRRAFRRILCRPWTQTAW
Sequence of UniProt P13945 (whole entry, looked up): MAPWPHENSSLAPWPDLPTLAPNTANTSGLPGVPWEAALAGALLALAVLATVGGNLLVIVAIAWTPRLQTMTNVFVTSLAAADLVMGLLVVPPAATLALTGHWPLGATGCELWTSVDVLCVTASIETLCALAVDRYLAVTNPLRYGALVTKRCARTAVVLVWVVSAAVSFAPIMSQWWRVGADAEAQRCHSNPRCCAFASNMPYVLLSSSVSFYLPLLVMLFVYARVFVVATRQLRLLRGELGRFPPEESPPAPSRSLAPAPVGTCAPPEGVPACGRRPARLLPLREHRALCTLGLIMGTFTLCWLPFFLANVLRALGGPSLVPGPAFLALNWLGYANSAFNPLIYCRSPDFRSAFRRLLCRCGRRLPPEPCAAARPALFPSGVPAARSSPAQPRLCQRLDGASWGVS
Sequence of UniProt P18825 (whole entry, looked up): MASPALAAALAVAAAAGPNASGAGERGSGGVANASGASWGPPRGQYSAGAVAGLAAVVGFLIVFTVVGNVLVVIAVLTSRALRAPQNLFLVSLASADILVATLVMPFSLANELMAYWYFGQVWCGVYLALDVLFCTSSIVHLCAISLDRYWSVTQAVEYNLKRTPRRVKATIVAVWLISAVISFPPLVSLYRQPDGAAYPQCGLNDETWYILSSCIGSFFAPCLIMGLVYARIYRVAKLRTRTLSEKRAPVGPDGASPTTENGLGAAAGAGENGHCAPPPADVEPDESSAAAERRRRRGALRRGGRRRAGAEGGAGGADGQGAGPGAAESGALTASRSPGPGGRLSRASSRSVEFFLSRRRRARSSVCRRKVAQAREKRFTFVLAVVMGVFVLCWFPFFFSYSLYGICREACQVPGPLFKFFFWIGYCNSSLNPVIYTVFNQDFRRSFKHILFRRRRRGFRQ

Study 1
Compound: C=CC(=O)N1CCC([C@@H]2CCNc3c(C(N)=O)c(-c4ccc(Oc5ccccc5)cc4)nn32)CC1
Concentration: 1 µM
Quantity: inhibition
Ephrin type-B receptor 3 (EPHB3, Homo sapiens, UniProt P54753); cell-free assay: 9%
Wee1-like protein kinase (WEE1, Homo sapiens, UniProt P30291); enzyme activity, inhibitor: 4%
Tyrosine-protein kinase SYK (SYK, Homo sapiens, UniProt P43405); enzyme activity, inhibitor: 0%
Epidermal growth factor receptor (EGFR, Homo sapiens, UniProt P00533, L858R); cell-free assay: 43%
Ribosomal protein S6 kinase alpha-3, N-terminal kinase domain (RPS6KA3, Homo sapiens, UniProt P51812); inhibitor: 30%

Study 2
SMILES: CO[C@@H](C)c1c(Nc2ccc([C@@H](N(C)C(=O)C3CCS(=O)(=O)CC3)C(F)(F)F)cc2)cnc2cc(Cl)nn12
Effect on: binding
Technique: radioligand binding
Concentration: 10 µM
Quantity: inhibition
Alpha-2C adrenergic receptor (ADRA2C, Homo sapiens, UniProt P18825): 1.97%
Beta-3 adrenergic receptor (ADRB3, Homo sapiens, UniProt P13945): 12.9%
Histamine H4 receptor (HRH4, Homo sapiens, UniProt Q9H3N8): -8.46%
Muscarinic acetylcholine receptor M2 (CHRM2, Homo sapiens, UniProt P08172): -10.5%
Histamine H1 receptor (HRH1, Homo sapiens, UniProt P35367): -9.88%
D(1A) dopamine receptor (DRD1, Homo sapiens, UniProt P21728): 17.9%
5-hydroxytryptamine receptor 7 (HTR7, Homo sapiens, UniProt P34969): -27.8%
Histamine H2 receptor (HRH2, Homo sapiens, UniProt P25021): 5.46%
Alpha-2B adrenergic receptor (ADRA2B, Homo sapiens, UniProt P18089): 1.55%
5-hydroxytryptamine receptor 3A (HTR3A, Homo sapiens, UniProt P46098): -1.2%
Alpha-1B adrenergic receptor (ADRA1B, Homo sapiens, UniProt P35368): 5.97%
Muscarinic acetylcholine receptor M4 (CHRM4, Homo sapiens, UniProt P08173): 21.1%
Alpha-1D adrenergic receptor (ADRA1D, Homo sapiens, UniProt P25100): 3.2%

Study 3
Structure (SMILES): C[C@H]1CC[C@H](n2c3cnccc3c3cnc(Nc4ccc5c(n4)CCN(C(=O)CO)C5)nc32)CC1
Concentration: 1 µM
Quantity: remaining binding
Tyrosine-protein kinase JAK3, JH1 (JAK3, Homo sapiens, UniProt P52333); cell-free assay, competition with immobilised ligand: 100%
Tyrosine-protein kinase receptor TYRO3 (TYRO3, Homo sapiens, UniProt Q06418); binding: 100%
Cyclin-dependent kinase 3 (CDK3, Homo sapiens, UniProt Q00526); binding, competition with immobilised ligand: 70%
Serine/threonine-protein kinase 32A (STK32A, Homo sapiens, UniProt Q8WU08); binding: 100%

Study 4
SMILES: c1ccc(Oc2ccc(Nc3c4c(nc5ccccc35)CCC4)cc2)cc1
Quantity: cytotoxicity
HEK293; resazurin; 0.166 µM, 10% serum: 8%
HEK293; resazurin; 1.66 µM, 10% serum: 10%
PMA-differentiated THP-1 macrophages; 40 µM, 64 h: 79% and 73%
HepG2; resazurin; 0.166 µM, 48 h: 5%
RAW264.7; resazurin; 66.66 µM, 64 h: 80% and 87%
HEK293; resazurin; 3.32 µM, 10% serum: 22% and 13%

Excerpt of the above (study 2):
Alpha-1B adrenergic receptor (ADRA1B, Homo sapiens, UniProt P35368): 5.97%
Muscarinic acetylcholine receptor M4 (CHRM4, Homo sapiens, UniProt P08173): 21.1%
Beta-3 adrenergic receptor (ADRB3, Homo sapiens, UniProt P13945): 12.9%
